Results pooled from the literature.
Protocols differ between the studies behind these lines. ± gives the spread as reported.
gag-pol reverse transcriptase: Gag-Pol polyprotein, reverse transcriptase (gag-pol, Human immunodeficiency virus 1, UniProt P03366)
Cytochrome P450 2A13: Cytochrome P450 2A13 (Homo sapiens, UniProt Q16696)
Chain of UniProt Q16696 (whole entry, looked up): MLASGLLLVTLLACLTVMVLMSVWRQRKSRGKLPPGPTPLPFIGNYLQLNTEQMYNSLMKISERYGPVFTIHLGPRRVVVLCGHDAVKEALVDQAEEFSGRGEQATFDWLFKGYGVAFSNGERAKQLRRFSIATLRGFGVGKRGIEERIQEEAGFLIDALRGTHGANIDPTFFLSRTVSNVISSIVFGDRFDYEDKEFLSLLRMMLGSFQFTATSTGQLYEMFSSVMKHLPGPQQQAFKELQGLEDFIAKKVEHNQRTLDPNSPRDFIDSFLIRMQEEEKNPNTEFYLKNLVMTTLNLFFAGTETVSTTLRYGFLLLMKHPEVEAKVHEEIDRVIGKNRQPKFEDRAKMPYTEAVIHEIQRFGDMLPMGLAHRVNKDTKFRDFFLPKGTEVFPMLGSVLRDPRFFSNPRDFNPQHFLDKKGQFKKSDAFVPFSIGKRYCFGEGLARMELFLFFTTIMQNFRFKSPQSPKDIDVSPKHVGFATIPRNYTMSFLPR
Chain of UniProt Q00987 (whole entry, looked up): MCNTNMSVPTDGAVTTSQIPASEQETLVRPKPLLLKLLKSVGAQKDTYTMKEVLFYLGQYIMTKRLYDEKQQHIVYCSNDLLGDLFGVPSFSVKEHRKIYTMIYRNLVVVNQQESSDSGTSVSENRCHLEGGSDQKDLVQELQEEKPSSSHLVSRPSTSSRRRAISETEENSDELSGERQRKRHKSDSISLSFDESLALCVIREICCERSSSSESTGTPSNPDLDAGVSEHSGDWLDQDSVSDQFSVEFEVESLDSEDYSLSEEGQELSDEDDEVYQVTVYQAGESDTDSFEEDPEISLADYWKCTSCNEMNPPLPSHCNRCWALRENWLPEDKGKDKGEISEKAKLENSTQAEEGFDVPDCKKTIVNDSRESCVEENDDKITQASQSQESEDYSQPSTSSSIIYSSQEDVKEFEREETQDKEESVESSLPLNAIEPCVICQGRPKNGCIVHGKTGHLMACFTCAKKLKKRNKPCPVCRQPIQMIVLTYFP
Chain of UniProt Q99623 (whole entry, looked up): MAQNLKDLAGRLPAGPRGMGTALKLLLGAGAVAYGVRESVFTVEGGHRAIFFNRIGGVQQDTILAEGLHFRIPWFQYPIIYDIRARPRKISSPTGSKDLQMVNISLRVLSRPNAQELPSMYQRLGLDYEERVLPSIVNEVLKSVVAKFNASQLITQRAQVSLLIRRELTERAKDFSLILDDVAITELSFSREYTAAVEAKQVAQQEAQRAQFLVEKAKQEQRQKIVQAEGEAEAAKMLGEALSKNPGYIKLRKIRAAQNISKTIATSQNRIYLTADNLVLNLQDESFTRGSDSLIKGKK
Chain of UniProt Q8NCC3 (whole entry, looked up): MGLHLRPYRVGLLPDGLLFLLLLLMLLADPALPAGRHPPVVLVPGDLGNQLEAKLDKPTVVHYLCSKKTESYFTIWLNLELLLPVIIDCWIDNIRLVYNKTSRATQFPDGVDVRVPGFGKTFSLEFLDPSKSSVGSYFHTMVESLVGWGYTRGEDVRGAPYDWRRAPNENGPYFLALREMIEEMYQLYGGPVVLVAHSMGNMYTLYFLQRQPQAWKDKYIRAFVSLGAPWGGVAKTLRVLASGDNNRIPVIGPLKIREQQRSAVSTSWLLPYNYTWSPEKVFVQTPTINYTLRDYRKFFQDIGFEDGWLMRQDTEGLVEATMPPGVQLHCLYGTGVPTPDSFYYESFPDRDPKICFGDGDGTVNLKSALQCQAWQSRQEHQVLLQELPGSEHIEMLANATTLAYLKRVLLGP
Chain of UniProt P33535 (whole entry, looked up): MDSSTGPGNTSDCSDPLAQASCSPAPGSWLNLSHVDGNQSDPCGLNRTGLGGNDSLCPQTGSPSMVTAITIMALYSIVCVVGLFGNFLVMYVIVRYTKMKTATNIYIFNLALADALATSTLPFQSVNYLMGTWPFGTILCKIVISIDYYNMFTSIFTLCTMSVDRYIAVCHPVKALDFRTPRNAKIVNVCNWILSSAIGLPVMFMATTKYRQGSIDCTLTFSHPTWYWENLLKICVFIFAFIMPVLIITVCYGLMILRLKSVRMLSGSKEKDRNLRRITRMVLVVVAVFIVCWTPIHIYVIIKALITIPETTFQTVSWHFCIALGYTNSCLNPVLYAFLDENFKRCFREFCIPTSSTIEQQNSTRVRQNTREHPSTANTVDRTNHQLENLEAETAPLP
Chain of UniProt P15207 (whole entry, looked up): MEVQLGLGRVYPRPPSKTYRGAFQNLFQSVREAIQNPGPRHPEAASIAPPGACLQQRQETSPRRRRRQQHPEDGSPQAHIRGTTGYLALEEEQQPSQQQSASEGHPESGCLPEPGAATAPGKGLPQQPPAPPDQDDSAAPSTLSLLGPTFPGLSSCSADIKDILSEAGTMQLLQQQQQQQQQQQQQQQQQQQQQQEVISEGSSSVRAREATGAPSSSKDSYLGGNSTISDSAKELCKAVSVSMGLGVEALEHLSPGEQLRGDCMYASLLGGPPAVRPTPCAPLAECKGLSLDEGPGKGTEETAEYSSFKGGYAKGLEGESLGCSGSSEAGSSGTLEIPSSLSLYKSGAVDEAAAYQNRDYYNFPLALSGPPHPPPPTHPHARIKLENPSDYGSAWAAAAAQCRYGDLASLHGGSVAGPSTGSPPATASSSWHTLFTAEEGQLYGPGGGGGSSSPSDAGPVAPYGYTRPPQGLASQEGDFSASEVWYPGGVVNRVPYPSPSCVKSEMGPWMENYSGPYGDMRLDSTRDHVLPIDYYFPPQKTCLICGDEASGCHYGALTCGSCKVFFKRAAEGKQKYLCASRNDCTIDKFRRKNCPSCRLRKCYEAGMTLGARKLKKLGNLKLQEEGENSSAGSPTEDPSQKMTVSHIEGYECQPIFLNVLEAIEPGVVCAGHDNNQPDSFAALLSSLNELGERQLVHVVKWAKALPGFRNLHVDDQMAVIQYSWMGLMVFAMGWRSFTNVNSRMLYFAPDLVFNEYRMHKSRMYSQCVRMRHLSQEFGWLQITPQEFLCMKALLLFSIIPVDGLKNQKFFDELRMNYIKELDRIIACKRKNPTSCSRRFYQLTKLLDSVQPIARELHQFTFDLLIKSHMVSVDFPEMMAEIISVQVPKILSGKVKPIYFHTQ
Chain of UniProt P08311 (whole entry, looked up): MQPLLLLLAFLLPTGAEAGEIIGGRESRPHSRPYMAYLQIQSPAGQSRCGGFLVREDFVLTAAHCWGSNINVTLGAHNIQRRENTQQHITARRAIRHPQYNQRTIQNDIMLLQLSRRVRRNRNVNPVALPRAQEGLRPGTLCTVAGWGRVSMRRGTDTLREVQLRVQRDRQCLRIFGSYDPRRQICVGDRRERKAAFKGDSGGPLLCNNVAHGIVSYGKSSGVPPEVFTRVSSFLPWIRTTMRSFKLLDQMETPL
Chain of UniProt O75604 (whole entry, looked up): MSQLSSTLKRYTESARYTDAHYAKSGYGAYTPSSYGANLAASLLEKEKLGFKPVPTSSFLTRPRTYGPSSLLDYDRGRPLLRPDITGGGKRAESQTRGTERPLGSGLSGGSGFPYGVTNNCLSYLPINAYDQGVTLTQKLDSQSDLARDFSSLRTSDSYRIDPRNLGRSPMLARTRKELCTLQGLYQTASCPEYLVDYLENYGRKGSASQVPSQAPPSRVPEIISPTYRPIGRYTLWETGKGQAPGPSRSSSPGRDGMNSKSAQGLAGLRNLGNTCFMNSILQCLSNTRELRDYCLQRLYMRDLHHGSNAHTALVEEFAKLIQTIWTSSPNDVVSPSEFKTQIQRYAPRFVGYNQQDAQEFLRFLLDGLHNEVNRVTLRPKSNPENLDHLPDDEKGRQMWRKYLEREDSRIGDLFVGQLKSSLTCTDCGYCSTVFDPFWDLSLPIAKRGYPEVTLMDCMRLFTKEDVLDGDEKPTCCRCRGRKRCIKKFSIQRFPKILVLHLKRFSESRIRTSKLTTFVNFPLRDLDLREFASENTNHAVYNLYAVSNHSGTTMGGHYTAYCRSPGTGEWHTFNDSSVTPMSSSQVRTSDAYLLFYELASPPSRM

SMILES	target	assay	test system	conditions	IC50
CC(C)C[C@H](NC(=O)[C@H](CCC(=O)O)NC(=O)CNC(=O)[C@H](Cc1ccccc1)NC(=O)[C@H](CCCNC(=N)N)NC(=O)[C@H](C)NC(=O)CNC(=O)[C@H](CC(=O)O)NC(=O)[C@@H](N)CCCNC(=N)N)C(=O)O	Uncharacterized protein (Equus caballus, UniProt Q38RB9)	peptide binding, competitor, competitive radioligand binding	purified horse MHC class I	pH 7	0.0081 µM
COc1cc(Nc2ncc(F)c(Nc3ccc4c(n3)NC(=O)C(C)(C)O4)n2)cc(OC)c1OC	Cathepsin G (CTSG, Homo sapiens, UniProt P08311)				> 10 µM
O=C1CSC(c2ccc(Br)cc2)N1c1nc(-c2ccc(S(=O)(=O)N3CCCC3)cc2)cs1 (stereo not drawn)	gag-pol reverse transcriptase				> 4 µM
OC1C=Cc2c(ccc3ccc4ccccc4c23)C1O (stereo not drawn)	Cytochrome P450 2A13	enzyme activity, inhibitor		20 min, pH 7.4	> 200 µM
CC(=O)N[C@@H](CCCCN)C(=O)N[C@H](C(=O)N[C@@H](Cc1ccccc1)C(=O)N[C@H]1CSCCCCCCS[C@H]2C[C@@H](C(N)=O)N(C2)C(=O)NC[C@H](CC(C)C)NC(=O)NC[C@H](CC(C)C)NC(=O)[C@H](C)NC(=O)[C@H](Cc2c[nH]c3ccccc23)NC(=O)[C@H](Cc2ccc(O)cc2)NC(=O)[C@H](CCC(=O)O)NC1=O)[C@@H](C)O	E3 ubiquitin-protein ligase Mdm2, with p53 (MDM2, Homo sapiens, UniProt Q00987)	inhibitor			0.00302 µM
CC(=O)N[C@@H](CC(C)C)C(=O)N[C@H](C(=O)N[C@@H](Cc1ccccc1)C(=O)N[C@@]1(C)CCCC=CCCC[C@@](C)(C(=O)N[C@@H](CCC(N)=O)C(=O)N[C@@H](CC(C)C)C(=O)N[C@H](C(=O)N[C@@H](CO)C(N)=O)[C@@H](C)O)NC(=O)[C@H](Cc2c[nH]c3ccccc23)NC(=O)[C@H](Cc2ccc(O)cc2)NC(=O)[C@H](CCC(=O)O)NC1=O)[C@@H](C)O	E3 ubiquitin-protein ligase Mdm2 (MDM2, Homo sapiens, UniProt Q00987)				0.049 µM
COC(=O)N(C(=O)N1COC2(C(=O)OC)Cc3cc(Cl)ccc3C2=N1)c1ccc(OC(F)(F)F)cc1 (racemic)	Androgen receptor (Ar, Rattus norvegicus, UniProt P15207)	binding, competitive ligand binding			> 100 µM
COC1CCCOC12CCN(C(=O)c1cnc3c(O)cccn3c1=O)CC2 (stereo not drawn)	Metallo-beta-lactamase type 2, Δ35 (blaNDM-1, Klebsiella pneumoniae, UniProt C7C422)	inhibitor			36 ± 2 µM
O=C1c2ccccc2C(=O)c2oc(-c3cccnc3)nc21	Ubiquitin carboxyl-terminal hydrolase 2 (USP2, Homo sapiens, UniProt O75604)	enzyme activity, MALDI-TOF		35 min preincubation, 30 °C	0.21 µM
CO[C@]1([C@@H]2CSC(=O)N2CCCO)C[C@H]2C[C@@H](CC[C@H](C)/C=C\C=C\CC/C(C)=C\C(=O)O2)O1	Actin, alpha skeletal muscle, pyrene-labeled (ACTA1, Oryctolagus cuniculus, UniProt P68135)	actin polymerization, pyrene actin			8.55 ± 0.574 µM
C[N+](C)(C)CCOP(=O)([O-])OC[C@H](O)CO	Lysosomal phospholipase A and acyltransferase (PLA2G15, Homo sapiens, UniProt Q8NCC3)	enzyme activity, inhibitor			~900 µM
c1ccc2cc3ccccc3cc2c1	Cytochrome P450 2A13	enzyme activity, inhibitor		20 min, pH 7.4	> 200 µM
Cc1cc(O)cc(C)c1C[C@H](N)C(=O)N[C@H](C)C(=O)NCC(=O)N[C@@H](Cc1ccc(Cl)cc1)C(=O)N(C)CCC[C@@]1(c2ccc(F)cc2)OCc2cc(C#N)ccc21	Mu-type opioid receptor (Oprm1, Rattus norvegicus, UniProt P33535)				0.0269 µM
O=C1CSC(c2cccc(Cl)c2Cl)N1c1nc(-c2ccc(S(=O)(=O)N3CCCC3)cc2)cs1 (stereo not drawn)	gag-pol reverse transcriptase				> 4 µM
C[C@H]1CN(c2n[nH]c3nc(N[C@H]4CC[C@H](NS(=O)(=O)CCC(F)(F)F)CC4)ncc23)CCO1	Prohibitin-2 (PHB2, Homo sapiens, UniProt Q99623)	biochemical			≥ 20 µM

Some of these lines once more:
SMILES	target	assay	test system	conditions	IC50
CC(=O)N[C@@H](CC(C)C)C(=O)N[C@H](C(=O)N[C@@H](Cc1ccccc1)C(=O)N[C@@]1(C)CCCC=CCCC[C@@](C)(C(=O)N[C@@H](CCC(N)=O)C(=O)N[C@@H](CC(C)C)C(=O)N[C@H](C(=O)N[C@@H](CO)C(N)=O)[C@@H](C)O)NC(=O)[C@H](Cc2c[nH]c3ccccc23)NC(=O)[C@H](Cc2ccc(O)cc2)NC(=O)[C@H](CCC(=O)O)NC1=O)[C@@H](C)O	E3 ubiquitin-protein ligase Mdm2 (MDM2, Homo sapiens, UniProt Q00987)				0.049 µM
COC1CCCOC12CCN(C(=O)c1cnc3c(O)cccn3c1=O)CC2 (stereo not drawn)	Metallo-beta-lactamase type 2, Δ35 (blaNDM-1, Klebsiella pneumoniae, UniProt C7C422)	inhibitor			36 ± 2 µM
